Measurements gathered from unrelated publications.
Each numbered part is a random draw from the data of one study; scales do not carry over between parts.

Block 1
Target: Prothrombin, mature alpha-thrombin (F2, Homo sapiens, UniProt P00734)
Method: aptamer microarray, sandwich
Form: DNA with 2'F-ANA
Matrix: in vitro
Concentration: 200 nM
Setting: whole 15-mer aptamer, many near background
Added: Cy3 exosite-II aptamer, 400 nM
Direction: higher = stronger binding
Measurement: mean fluorescence intensity
Strand: GGTTGGTGTGGTTGG
2'F-ANA at 2 4 5 7 10 12 13 14 15: 45.5 a.u.
2'F-ANA at 1 2 5 6 8 9 10 11 12 13: 54.6 a.u.
2'F-ANA at 1 3 4 5 6 8 10: 97.1 a.u.
2'F-ANA at 1 5 6 9 10 11 15: 50.7 a.u.
2'F-ANA at 2 5 9 11 12 13 15: 83.9 a.u.
2'F-ANA at 1 3 4 10 11 12 14 15: 56.1 a.u.
2'F-ANA at 2 3 8 10 11 12: 424 a.u.
2'F-ANA at 2 3 4 5 7 9 10 11 12 13 15: 52.4 a.u.
2'F-ANA at 3 4 5 6 7 9 10 13: 48.4 a.u.
2'F-ANA at 1 4 5 9 10 11 12 13 15: 97.8 a.u.
2'F-ANA at 3 5 6 7 9 11 15: 80.8 a.u.
2'F-ANA at 1 2 4 8 10 11 13 14: 55.1 a.u.
2'F-ANA at 2 5 8 10 11 13 14 15: 96.3 a.u.
2'F-ANA at 2 4 6 11 12 14 15: 103 a.u.
2'F-ANA at 1 4 5 6 9 10 12 14: 45 a.u.
2'F-ANA at 1 4 6 7 8 10 11 13 15: 52.8 a.u.
2'F-ANA at 1 5 9 14 15: 61.8 a.u.
2'F-ANA at 4 6 7 8 9 12 13 14: 91.7 a.u.
2'F-ANA at 3 4 5 6 7 8 10 12 13 15: 94.4 a.u.
2'F-ANA at 1 2 4 8 10 11 13 14 15: 49.2 a.u.
2'F-ANA at 7 10 12 13 15: 236 a.u.
2'F-ANA at 2 3 6 8 10 11 13 15: 290 a.u.
2'F-ANA at 2 3 6 7 8 10 12 13 14 15: 224 a.u.
2'F-ANA at 2 3 6 11: 623 a.u.
2'F-ANA at 1 2 4 5 6 7 9 10 11 13: 51.7 a.u.

Block 2
Target: Fragile X messenger ribonucleoprotein 1, C-terminal low-complexity region (Fmr1, Mus musculus, UniProt P35922)
Method: RNA Bind-n-Seq
Form: RNA
Matrix: in vitro
Concentration: 200 nM
Setting: whole 134-nt RNA, ends assumed
Added: 150 mM KCl
Reference: input library
Direction: higher = stronger binding
Measurement: log2 enrichment
Shared flanks, not repeated: GGGAGUUCUACAGUCCGACGAUC … UGGAAUUCUCGGGUGUCAAGG
CUCAAGUCCUGUGCUACACAUCGUAUGUACCGAAUCGGGGCGGCGGGGCGGGGAAAGUAUUAUGUUACGCCGUUCGGAUCUGCACUUCCA: 1.03
CACAGACAACAAAAACCCACACAGACACAGAGGGAAGGGGUUGGGAUGGGGACAGGGUGCACAGCAGGGCGGGGUAGGACCCCAGCCCCU: 1.42
AAGUCCUGUGCUACACAUCGUAUGUACCGAAUCGGGUUUGGGAAAAAAAGGGAGGGAAAGUAUUAUGUUACGCCGUUCGGAUCUGCACUU: 0.865
CCUGUGCUACACAUCGUAUGUACCGAAUCGGGGUUUUUUGGGUUUUUUGGGGUUUUUUGGGAAAGUAUUAUGUUACGCCGUUCGGAUCUG: -0.398
UGGCCCUGGUGGCAUGCGGGGAGGAAGUGGUGGCCUCAUGGAUCGUGGUGGUCCCGGUGGAAUGUUCAGAGGUGGCCGUGGUGGAGACAG: 0.177
GCAGGAAGUAAAAACAAAUGGAAAUGCUUCGGAUAGUGGCAGGGGAAAGGGUUGCUAAGGAAAGGGUGGGAUGGGAGUGGGUAAAGAGUU: 0.339
CACAGACAACACGCACCCACACAGACACAGAGGGAAGGGGUUGGGAUGGAGACAGGGUGCACAGCAGGGCGGGGUAGGACCCCAGCCCCU: 0.912
CAAGUCCUGUGCUACACAUCGUAUGUACCGAAUCGGGGUGGGGAGGGGUUUGGGGAAAGUAUUAUGUUACGCCGUUCGGAUCUGCACUUC: 1.28
AAGUCCUGUGCUACACAUCGUAUGUACCGAAUCGGAAAAAAAGGAAAAAAAGGUGGAAAGUAUUAUGUUACGCCGUUCGGAUCUGCACUU: -0.938
GCAGGAAGUAAAAACAAAUGGAAAUGCUUCGGAUAGUGGCAGGGGUGGGGGUUGCUAAGGAAAGGGUGGGAUGGGAGUGGGUAGAGAGUU: 0.211
AAGUCCUGUGCUACACAUCGUAUGUACCGAAUCGGGGAGGGGAAAAAGGGGUGGGGAAAGUAUUAUGUUACGCCGUUCGGAUCUGCACUU: 1.03
CACAGACAACACGCACCCACACAGACACAGAGGGAAGGGGUUGGGAUGGGGACAGGGUGCACAGCAGGGCGGGGUAGGCCCCCAGCCCCU: 1.23
UGGGAGGUGGAUUUUGUUUAUUUUUUUAGCUCAUUUCCAGGGGUGGGAAUUUUUUUUUAAUAUGUGUCAUGAAUAUAGUUGUUUUUGAAA: 0.284
UCCUCAAGUCCUGUGCUACACAUCGUAUGUACCGAAUCGGAGGUGGUUUGGAAAGUAUUAUGUUACGCCGUUCGGAUCUGCACUUCCAGC: -0.563

Block 3
Target: PABPC1L2, full length, GST fusion (mouse, UniProt A0ABA7IW68)
Method: RNAcompete
Form: RNA
Matrix: in vitro
Concentration: 20 nM
Setting: 7-mer, probes averaged, single round
Reference: mean of 7-mers
Direction: higher = stronger binding
Measurement: 7-mer Z-score
Construct (chain): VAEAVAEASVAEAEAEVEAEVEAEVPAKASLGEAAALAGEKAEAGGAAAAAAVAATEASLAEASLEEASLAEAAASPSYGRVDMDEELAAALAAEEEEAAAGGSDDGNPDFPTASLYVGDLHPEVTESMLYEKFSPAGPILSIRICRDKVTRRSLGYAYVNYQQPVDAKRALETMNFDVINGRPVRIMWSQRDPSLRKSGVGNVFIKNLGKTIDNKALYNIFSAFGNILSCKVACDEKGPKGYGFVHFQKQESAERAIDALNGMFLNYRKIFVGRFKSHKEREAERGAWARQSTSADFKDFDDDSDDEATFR
CUAGGAA: 0.182
GCGAACU: -0.141
GGUAGCG: 0.00436
GCCGGUG: -0.322
AUGGCCC: 0.095
UCGCAUA: -0.302
UGCACGG: -0.0337
UCCUUUU: -0.0989
ACUUCCG: -0.249
AAGCACA: 0.138
CUCGUAC: -0.251
CCAUUCG: -0.211
UGUAUCU: -0.257
AACAAGC: 0.432
CUAACCA: -0.0536
UGAGUCU: -0.362
UCUGCCU: -0.32
CACUCGG: -0.0573
UGUAAUC: -0.195
UACGUAC: -0.157
CUCCGAG: -0.199
UGAGAGG: 0.0424
UUAGUAA: 0.000733
CCGCACU: -0.26
AGCAAUG: -0.0174

Block 4
Target: Interferon regulatory factor 7, full length, phosphomimetic (IRF7, Homo sapiens, UniProt Q92985, residues 1-503, S101K/S471D/S472D/S475D/S476D/S477D/S483D/S484D/S487D)
Method: protein-binding microarray
Form: double-stranded DNA, one strand shown
Matrix: in vitro
Concentration: 250 nM
Setting: 60-bp whole probe
Added: salmon DNA 0.4 mg/ml
Reference: random background probes
Direction: higher = stronger binding
Measurement: log fluorescence
Shared flanks, not repeated: GCCTAGCAC … GTCTTGATTCGCTTGACGCTGCTG
Construct (chain): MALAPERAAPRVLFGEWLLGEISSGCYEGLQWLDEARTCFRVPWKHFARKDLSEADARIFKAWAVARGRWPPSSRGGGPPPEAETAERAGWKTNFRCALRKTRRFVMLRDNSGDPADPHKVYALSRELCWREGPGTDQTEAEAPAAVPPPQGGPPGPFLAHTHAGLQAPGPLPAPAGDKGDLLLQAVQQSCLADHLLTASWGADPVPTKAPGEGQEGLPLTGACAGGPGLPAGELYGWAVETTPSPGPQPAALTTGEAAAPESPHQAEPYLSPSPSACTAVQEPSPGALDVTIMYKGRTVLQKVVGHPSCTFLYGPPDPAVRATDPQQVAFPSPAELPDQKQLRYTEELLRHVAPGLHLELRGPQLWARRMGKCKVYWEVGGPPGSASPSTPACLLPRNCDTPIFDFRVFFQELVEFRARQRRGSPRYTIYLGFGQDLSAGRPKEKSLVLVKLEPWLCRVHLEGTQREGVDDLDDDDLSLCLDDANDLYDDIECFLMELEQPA
TTCCCTCCCTAATTCTGATTGTGCTAG: 1.18 z-score
GACGGTTTCCTTTTGCTGACGTGCTAG: 8.59 z-score
AGTGTTACCCCTCATCAACCAGTGCTA: -0.195 z-score
TTAGGTATCGACTTTCTGTTAGTGCTA: 1.66 z-score
GACAGTATCGGGTATCGGGACGTGCTA: 0.127 z-score
TCACCTCTTTTTTTGGTACTGTGCTAG: 0.668 z-score
GTCGGTTTCGACTATCGGGACGTGCTA: 6.73 z-score
TCATTATTTTTTTTATTACTGTGCTAG: 1.07 z-score
GGCGGTTCCGGTTTCGGGACGTGCTAG: 6.87 z-score
GACGGTTTCATTCTCCTGACGTGCTAG: 3.83 z-score
TTCGGACTGGGTCTCGGTTAGTGCTAG: 0.559 z-score
TAAGGTTTCCTACTGCTTTAGTGCTAG: 1.36 z-score
TTAGGTTTCGATACTGGGTTAGTGCTA: 8.74 z-score
TCAACATTCACCATGGCACTGTGCTAG: 0.24 z-score
GACGGTTTCGGGTATCGGCACGTGCTA: 6.95 z-score
TGCACTCTTTACATGGGTTTGTGCTAG: 0.373 z-score
TTACATATCAGTATCGATTAGTGCTAG: 1.15 z-score
ATAGAACTGGGGACTGGATTAGTGCTA: -0.431 z-score
GACGGGCTCGGTTTCGGGACGTGCTAG: 5.64 z-score
TTAGGTATCGGTATCTGTTAGTGCTAG: 2 z-score
GTCGGTTTCGACACTGGGGACGTGCTA: 4.51 z-score

Block 5
Target: FOXO3, forkhead domain (mouse, UniProt Q9WVH4, residues 31-263)
UniProt Q9WVH4, sequence (31-263, looked up): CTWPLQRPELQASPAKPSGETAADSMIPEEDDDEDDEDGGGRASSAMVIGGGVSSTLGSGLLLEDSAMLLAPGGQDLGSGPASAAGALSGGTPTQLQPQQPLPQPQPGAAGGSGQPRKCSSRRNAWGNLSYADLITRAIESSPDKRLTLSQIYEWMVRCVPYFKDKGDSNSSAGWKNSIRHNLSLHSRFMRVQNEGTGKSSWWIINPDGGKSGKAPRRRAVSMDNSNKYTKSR
Method: protein-binding microarray
Form: hairpin DNA
Matrix: in vitro
Concentration: not given
Setting: whole hairpin DNA, median over replicate spots
Reference: not given
Direction: higher = stronger binding
Measurement: median fluorescence
GAGGCCATGTAACCAACGCCTCCTGGCGTTGGTTACATGGCCTCACACTC (5mC at 36): 3770 a.u.
GAGGCCATGCAAACAAGGCCTCCTGGCCTTGTTTGCATGGCCTCACACTC (5mC at 28): 4760 a.u.
GAGGCCATGTAAACACCGCCTCCTGGCGGTGTTTACATGGCCTCACACTC: 5190 a.u.
GAGGCCATGTAACCCACGCCTCCTGGCGTGGGTTACATGGCCTCACACTC (5mC at 15): 4130 a.u.
GAGGCCCTGCAAACAACGCCTCCTGGCGTTGTTTGCAGGGCCTCACACTC: 4940 a.u.
GAGGCCATGCAAACAACGCCTCCTGGCGTTGTTTGCATGGCCTCACACTC (5mC at 14): 4980 a.u.
GAGGCCTTGTAACCAACGCCTCCTGGCGTTGGTTACAAGGCCTCACACTC: 3690 a.u.
GAGGCCATGCAAACAACGCCTCCTGGCGTTGTTTGCATGGCCTCACACTC (5mC at 36): 4870 a.u.
GAGGCCATGTAAACACGGCCTCCTGGCCGTGTTTACATGGCCTCACACTC: 4860 a.u.
GAGGCCATGTAAACACGGCCTCCTGGCCGTGTTTACATGGCCTCACACTC (5mC at 16): 4790 a.u.
GAGGCCATGTCGACAACGCCTCCTGGCGTTGTCGACATGGCCTCACACTC: 4570 a.u.
GAGGCCATGTCACCAACGCCTCCTGGCGTTGGTGACATGGCCTCACACTC (5mC at 11): 4370 a.u.
GAGGCCATGTACGCAACGCCTCCTGGCGTTGCGTACATGGCCTCACACTC (5mC at 12 32): 4650 a.u.
GAGGCCATGTAAACAAGGCCTCCTGGCCTTGTTTACATGGCCTCACACTC (5mC at 28): 4960 a.u.
GAGGCCCTGTAAACAACGCCTCCTGGCGTTGTTTACAGGGCCTCACACTC: 5290 a.u.
GAGGCCAGGTAAACAACGCCTCCTGGCGTTGTTTACCTGGCCTCACACTC (5mC at 37): 5370 a.u.
GAGGCCATGTCGACAACGCCTCCTGGCGTTGTCGACATGGCCTCACACTC (5mC at 11): 4360 a.u.

Excerpt of the above (block 3):
UGUAUCU: -0.257
UACGUAC: -0.157
GGUAGCG: 0.00436
GCGAACU: -0.141
UCUGCCU: -0.32
CUAGGAA: 0.182
UCGCAUA: -0.302
